# Measured values from different studies.
# Every numbered part comes from another study and shows a few of its results, in no order. “And” joins repeats or separate records; there may be more than shown. ± marks the error that the study gave.
# Sequence of UniProt O94806 (whole entry, looked up): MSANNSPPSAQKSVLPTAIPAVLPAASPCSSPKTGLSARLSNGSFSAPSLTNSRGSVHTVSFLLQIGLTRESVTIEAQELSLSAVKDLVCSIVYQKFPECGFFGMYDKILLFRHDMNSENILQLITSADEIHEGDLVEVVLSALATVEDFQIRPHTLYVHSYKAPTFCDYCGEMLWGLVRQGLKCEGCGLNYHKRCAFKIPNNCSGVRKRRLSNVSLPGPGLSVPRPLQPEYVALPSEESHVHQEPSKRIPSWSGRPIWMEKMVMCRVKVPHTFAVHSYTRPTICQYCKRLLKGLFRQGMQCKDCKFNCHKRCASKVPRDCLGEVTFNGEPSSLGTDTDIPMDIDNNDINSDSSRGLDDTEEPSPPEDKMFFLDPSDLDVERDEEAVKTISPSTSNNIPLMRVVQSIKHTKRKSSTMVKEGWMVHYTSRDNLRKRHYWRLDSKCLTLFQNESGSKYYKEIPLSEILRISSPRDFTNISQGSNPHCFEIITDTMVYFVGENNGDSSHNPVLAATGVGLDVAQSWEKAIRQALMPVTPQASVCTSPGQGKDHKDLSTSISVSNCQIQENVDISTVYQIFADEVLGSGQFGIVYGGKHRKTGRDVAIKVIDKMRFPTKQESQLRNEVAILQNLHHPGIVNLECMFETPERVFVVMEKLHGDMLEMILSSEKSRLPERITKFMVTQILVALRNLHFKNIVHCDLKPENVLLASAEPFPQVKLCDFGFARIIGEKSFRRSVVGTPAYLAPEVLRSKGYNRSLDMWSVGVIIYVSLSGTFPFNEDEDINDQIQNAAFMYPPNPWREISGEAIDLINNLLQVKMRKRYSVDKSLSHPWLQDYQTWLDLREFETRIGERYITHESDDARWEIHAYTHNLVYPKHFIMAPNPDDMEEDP
# Sequence of UniProt O43353 (whole entry, looked up): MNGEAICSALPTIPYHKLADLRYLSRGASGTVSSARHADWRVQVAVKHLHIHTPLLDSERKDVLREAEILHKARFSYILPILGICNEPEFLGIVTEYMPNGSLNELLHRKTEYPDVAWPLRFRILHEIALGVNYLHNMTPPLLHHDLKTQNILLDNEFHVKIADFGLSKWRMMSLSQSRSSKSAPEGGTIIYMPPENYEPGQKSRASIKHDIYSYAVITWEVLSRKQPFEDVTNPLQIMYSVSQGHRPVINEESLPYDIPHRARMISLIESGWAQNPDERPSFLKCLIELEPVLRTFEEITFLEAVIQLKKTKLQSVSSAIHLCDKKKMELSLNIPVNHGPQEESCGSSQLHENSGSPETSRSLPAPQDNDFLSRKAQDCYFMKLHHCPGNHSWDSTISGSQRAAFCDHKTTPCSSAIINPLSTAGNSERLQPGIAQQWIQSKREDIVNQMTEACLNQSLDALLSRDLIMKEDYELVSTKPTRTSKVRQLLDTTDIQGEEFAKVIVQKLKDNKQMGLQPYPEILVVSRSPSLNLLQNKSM
# Sequence of UniProt Q9NRP7 (whole entry, looked up): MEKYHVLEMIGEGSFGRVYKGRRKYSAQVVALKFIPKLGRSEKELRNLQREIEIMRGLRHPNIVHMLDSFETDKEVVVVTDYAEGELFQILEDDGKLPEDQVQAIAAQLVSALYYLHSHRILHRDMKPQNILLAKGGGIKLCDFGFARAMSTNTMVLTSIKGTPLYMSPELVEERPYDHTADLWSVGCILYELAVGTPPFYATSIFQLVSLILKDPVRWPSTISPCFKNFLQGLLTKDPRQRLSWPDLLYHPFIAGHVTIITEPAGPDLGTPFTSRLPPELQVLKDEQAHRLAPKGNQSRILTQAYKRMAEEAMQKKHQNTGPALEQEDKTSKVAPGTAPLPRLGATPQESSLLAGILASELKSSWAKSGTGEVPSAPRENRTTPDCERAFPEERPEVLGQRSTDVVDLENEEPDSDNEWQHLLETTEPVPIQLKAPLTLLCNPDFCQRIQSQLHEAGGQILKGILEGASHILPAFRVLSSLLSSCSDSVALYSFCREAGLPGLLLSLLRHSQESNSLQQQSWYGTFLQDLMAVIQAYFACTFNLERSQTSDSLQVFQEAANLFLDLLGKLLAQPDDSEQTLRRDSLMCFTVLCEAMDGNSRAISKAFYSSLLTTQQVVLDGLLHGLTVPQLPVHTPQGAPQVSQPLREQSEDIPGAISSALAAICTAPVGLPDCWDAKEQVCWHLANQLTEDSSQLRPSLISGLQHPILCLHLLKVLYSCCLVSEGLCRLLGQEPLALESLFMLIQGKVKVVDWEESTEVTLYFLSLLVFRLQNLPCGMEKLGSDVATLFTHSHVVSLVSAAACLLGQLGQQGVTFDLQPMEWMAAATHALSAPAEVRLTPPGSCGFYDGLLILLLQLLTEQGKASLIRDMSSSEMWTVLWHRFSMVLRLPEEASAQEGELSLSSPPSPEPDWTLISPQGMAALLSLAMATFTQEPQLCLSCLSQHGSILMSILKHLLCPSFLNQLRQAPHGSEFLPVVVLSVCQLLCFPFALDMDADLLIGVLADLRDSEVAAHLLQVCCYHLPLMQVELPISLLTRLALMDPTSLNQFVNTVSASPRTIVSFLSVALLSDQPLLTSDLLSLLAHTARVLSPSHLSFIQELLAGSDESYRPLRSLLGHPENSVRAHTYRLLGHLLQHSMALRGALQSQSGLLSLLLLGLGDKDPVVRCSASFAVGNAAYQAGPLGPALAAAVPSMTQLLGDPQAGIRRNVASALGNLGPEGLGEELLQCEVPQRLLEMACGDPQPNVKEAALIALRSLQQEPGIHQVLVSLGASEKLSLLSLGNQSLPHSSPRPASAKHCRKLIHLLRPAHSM
# Sequence of UniProt P14616 (whole entry, looked up): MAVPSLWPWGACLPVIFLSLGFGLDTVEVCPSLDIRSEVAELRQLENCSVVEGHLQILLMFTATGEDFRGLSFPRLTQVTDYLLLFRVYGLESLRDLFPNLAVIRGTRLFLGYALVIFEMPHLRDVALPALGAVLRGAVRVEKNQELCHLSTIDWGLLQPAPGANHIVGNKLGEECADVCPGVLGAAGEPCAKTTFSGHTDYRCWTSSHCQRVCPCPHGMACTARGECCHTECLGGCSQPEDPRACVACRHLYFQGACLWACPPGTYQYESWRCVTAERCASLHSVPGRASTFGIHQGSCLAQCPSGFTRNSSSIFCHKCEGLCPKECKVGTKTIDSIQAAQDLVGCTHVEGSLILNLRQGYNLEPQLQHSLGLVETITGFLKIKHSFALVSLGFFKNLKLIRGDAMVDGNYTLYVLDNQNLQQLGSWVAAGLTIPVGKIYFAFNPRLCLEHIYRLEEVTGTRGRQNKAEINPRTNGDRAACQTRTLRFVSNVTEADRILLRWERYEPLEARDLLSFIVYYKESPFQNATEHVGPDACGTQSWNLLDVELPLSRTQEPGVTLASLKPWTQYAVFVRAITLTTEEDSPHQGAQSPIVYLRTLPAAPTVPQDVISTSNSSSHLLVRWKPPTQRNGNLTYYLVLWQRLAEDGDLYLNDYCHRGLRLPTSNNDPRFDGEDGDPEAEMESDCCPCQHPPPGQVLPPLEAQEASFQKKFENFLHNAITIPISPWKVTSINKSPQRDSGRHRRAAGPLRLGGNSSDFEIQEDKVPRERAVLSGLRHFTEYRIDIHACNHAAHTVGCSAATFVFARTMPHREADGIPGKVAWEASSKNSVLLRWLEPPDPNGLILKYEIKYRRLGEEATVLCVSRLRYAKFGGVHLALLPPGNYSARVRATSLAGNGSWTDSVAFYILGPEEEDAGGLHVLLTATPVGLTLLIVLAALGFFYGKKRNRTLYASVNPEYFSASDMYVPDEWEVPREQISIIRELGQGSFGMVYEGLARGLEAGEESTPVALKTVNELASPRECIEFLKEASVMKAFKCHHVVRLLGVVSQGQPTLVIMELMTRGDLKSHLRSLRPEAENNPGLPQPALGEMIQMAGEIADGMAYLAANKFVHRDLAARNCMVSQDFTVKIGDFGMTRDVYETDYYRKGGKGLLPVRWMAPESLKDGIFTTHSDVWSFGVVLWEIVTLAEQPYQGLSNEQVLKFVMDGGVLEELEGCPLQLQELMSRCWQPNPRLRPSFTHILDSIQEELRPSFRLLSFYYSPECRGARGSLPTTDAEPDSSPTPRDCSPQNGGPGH
# Sequence of UniProt Q99986 (whole entry, looked up): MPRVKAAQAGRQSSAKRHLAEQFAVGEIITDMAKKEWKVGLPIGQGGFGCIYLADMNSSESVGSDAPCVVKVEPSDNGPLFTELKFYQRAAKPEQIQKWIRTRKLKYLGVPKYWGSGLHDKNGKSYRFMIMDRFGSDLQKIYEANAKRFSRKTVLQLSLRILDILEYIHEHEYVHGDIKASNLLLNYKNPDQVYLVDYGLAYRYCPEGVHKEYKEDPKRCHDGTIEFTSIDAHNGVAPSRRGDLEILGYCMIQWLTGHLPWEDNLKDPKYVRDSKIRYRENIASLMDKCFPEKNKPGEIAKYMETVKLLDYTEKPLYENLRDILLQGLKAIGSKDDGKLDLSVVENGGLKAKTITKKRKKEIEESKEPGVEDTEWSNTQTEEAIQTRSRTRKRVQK

# Block 1 — observed: enzyme activity; mode: inhibitor; concentration: 0.5 µM; reference: control
# Structure (SMILES): Oc1cccc(-c2nc(N3CCOCC3)c3oc4ncccc4c3n2)c1
target,remaining activity [%]
"TNK2 (Homo sapiens, UniProt Q07912)",89.6
"PRKD3 (Homo sapiens, UniProt O94806)",92.9
"RIPK2 (Homo sapiens, UniProt O43353)",87.4
"INSRR (Homo sapiens, UniProt P14616)",114
"VRK1 (Homo sapiens, UniProt Q99986)",98.4
"TAOK1 (Homo sapiens, UniProt Q7L7X3)",91.6
"HCK (Homo sapiens, UniProt P08631)",91.9

# Block 2 — observed: cell-free assay; method: competition with immobilised ligand; concentration: 1 µM
# SMILES: C[C@@H]1CN(c2cc(-c3nn(C)c4ccc(OC5(C)CC5)cc34)ncn2)C[C@H](C)O1
target,remaining binding
"EPHA8 (Homo sapiens, UniProt P29322)",100%
"EGFR (Homo sapiens, UniProt P00533, del746-750)",100%
"PLK1 (Homo sapiens, UniProt P53350)",74%
"STK36 (Homo sapiens, UniProt Q9NRP7)",93%
"NEK3 (Homo sapiens, UniProt P51956)",99%
"MET (Homo sapiens, UniProt P08581, Y1235D)",87%
"CHUK (Homo sapiens, UniProt O15111)",75%
"PRKD3 (Homo sapiens, UniProt O94806)",64%
"EGFR (Homo sapiens, UniProt P00533, T790M)",100%
"MARK4 (Homo sapiens, UniProt Q96L34)",100%
"FLT3 (Homo sapiens, UniProt P36888, D835V/ITD)",88%
"MAPK11 (Homo sapiens, UniProt Q15759)",88%
"MELK (Homo sapiens, UniProt Q14680)",55%
"MYLK2 (Homo sapiens, UniProt Q9H1R3)",87%
"CDC42BPB (Homo sapiens, UniProt Q9Y5S2)",100%
"TTK (Homo sapiens, UniProt P33981)",100%
"MAP3K15 (Homo sapiens, UniProt Q6ZN16)",80%

# Block 3 — observed: kinase activity
# Compound: COc1cc(C(=O)N2CCC(N3CCN(C)CC3)CC2)ccc1Nc1ncc2c(n1)N(C)c1ccccc1C(=O)N2C
target,setting,remaining activity [%]
MARK4,10 µM,87 ± 8
CHK1,1 µM,82 ± 9
MEKK1,10 µM,83 ± 7
SRC,1 µM,99 ± 4
SYK,1 µM,71 ± 5
PKCa,1 µM,95 ± 13
p38d MAPK,1 µM,102 ± 6
TTK,10 µM,91 ± 6
JNK3,10 µM,109 ± 7
S6K1,1 µM,86 ± 2

# Block 4
# SMILES: Cc1cc2c(C(N)=O)c(N)n(-c3c(C)ccc(O)c3C)c2nc1C
# SRC: Proto-oncogene tyrosine-protein kinase Src (SRC, Homo sapiens, UniProt P12931)
tested on,assay,setting,inhibition
U-251 MG,cell growth,1111.11 nM,52.3%
HCC1569,"automated capillary immunoblot, measured: CDK1 phospho-Thr14",37.04 nM,45.7%
U-251 MG,cell growth,370.37 nM,12.9%
NCI-H1568,cell growth,1111.11 nM,42.7%
"BRAF (Homo sapiens, UniProt P15056)","kinase activity, ADP-Glo",10 µM,99.7%
HuCCT-1,cell proliferation,4.57 nM,2.79% and 3.17% and 5.69%
NCI-H1568,cell proliferation,41.15 nM,9.54% and 7.77%
HCC1569,"automated capillary immunoblot, measured: CDK1 phospho-Thr14",12.35 nM,39.7%
SRC,"kinase activity, inhibitor, HTRF",0.3704 µM,96.4%
NCI-H1568,cell growth,123.5 nM,14.5%
RKO,cell proliferation,370.37 nM,-0.26% and 7.73%
NCI-H1568,cell growth,4.572 nM,7.87%
SRC,"enzyme activity, inhibitor, TR-FRET",0.1235 µM,92.4%
